Published values collected from several papers.
Parts stem from different laboratories: compare values within a part only. Substitutions count along the parent as printed.
UniProt Q12851, sequence (whole entry, looked up): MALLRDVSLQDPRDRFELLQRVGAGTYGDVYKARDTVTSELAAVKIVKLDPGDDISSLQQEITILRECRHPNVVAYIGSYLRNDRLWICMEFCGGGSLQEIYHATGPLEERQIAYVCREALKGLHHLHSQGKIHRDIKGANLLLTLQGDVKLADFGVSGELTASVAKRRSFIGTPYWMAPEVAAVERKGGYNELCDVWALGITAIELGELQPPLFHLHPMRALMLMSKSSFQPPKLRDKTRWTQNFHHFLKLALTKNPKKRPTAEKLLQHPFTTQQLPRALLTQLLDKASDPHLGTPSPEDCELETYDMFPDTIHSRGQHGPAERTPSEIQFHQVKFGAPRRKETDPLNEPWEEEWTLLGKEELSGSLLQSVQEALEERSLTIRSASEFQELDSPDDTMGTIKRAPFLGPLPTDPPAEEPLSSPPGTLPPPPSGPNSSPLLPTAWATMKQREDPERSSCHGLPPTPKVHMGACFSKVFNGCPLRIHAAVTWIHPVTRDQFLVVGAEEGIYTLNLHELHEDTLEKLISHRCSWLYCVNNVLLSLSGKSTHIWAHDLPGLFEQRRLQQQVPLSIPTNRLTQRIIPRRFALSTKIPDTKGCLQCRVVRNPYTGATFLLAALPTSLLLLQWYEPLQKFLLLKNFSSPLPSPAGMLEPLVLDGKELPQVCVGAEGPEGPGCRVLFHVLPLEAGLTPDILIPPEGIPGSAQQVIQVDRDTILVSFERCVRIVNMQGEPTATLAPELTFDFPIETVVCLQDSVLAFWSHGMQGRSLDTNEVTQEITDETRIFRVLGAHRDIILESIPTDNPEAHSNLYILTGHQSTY

Study 1 — method: RNA Bind-n-Seq; molecule type: RNA; sample: in vitro; concentration: 1 µM; notes: whole 134-nt RNA, ends assumed; together with: 150 mM KCl; baseline: input library; direction: higher = stronger binding
Target: Ras GTPase-activating protein-binding protein 1, RRM domain (G3BP1, Homo sapiens, UniProt Q13283)
UniProt Q13283, sequence (whole entry, looked up): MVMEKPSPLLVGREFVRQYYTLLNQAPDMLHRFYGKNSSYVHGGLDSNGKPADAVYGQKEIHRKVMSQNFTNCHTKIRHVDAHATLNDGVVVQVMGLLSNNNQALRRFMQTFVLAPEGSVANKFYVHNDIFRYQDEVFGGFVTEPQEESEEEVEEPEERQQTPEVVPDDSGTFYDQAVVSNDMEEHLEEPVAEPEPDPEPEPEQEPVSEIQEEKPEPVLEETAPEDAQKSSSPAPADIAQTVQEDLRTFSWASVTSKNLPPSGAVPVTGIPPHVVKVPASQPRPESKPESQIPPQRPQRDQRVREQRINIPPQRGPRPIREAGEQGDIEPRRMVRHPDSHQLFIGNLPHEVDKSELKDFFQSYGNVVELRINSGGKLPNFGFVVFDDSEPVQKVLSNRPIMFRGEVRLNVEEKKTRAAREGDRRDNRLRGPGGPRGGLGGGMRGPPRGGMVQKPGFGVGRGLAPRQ
Shared flanks, not repeated: GGGAGUUCUACAGUCCGACGAUC … UGGAAUUCUCGGGUGUCAAGG
Strand	log2 enrichment
CCUGUGCUACACAUCGUAUGUACCGAAUCGGGUUUUUUGGGUUUUUUGGGUUUUUUGGGGAAAGUAUUAUGUUACGCCGUUCGGAUCUGC	-0.198
UAACUUUAGAGGAGGAUCUGAUGGAUAUGGCAGAGGACGUGGAUUUGGGGAUGGCUAUAAUGGGUAUGGAGGAGGACCUGGAGGUGGCAA	-0.521
UAACUUUAGAGGAGGAUCUGAUGGAUAUGGCAGUGGGCGUGGAUUUGGGGAUGGCUAUAAUGGGUAUGGAGGAGGACCUGGAGGUGGCAA	-0.575
UCCUGUGCUACACAUCGUAUGUACCGAAUCGGGUUUUUGGGUUUUUGGGGUUUUUGGGGAAAGUAUUAUGUUACGCCGUUCGGAUCUGCA	0.0804
GUCCUGUGCUACACAUCGUAUGUACCGAAUCGGGAAAGGGUUUUUUUGGGAAAAAGGGAAAGUAUUAUGUUACGCCGUUCGGAUCUGCAC	0.198
CUCAAGUCCUGUGCUACACAUCGUAUGUACCGAAUCGGAAGGAAGGGGAAGGGAAAGUAUUAUGUUACGCCGUUCGGAUCUGCACUUCCA	-0.137
ACCAUGCAGGUGGGCAUCUUUGGGAAGUGGGGCAAGGGGGGGAUAGGCAGGGGGGUAACACUUUGGGAACAGGUGGUCCCAGGUCGUUUC	0.882
GUCCUGUGCUACACAUCGUAUGUACCGAAUCGGGGAAAAGGGAAAAGGGGAAAAGGGGAAAGUAUUAUGUUACGCCGUUCGGAUCUGCAC	0.373

Study 2 — method: universal PBM; molecule type: double-stranded DNA, one strand shown; sample: in vitro; concentration: 600 nM; direction: higher = stronger binding
Target: Sal-like protein 4, full length isoform A (SALL4, Homo sapiens, UniProt Q9UJQ4, residues 1-1053)
UniProt Q9UJQ4, sequence (whole entry, looked up): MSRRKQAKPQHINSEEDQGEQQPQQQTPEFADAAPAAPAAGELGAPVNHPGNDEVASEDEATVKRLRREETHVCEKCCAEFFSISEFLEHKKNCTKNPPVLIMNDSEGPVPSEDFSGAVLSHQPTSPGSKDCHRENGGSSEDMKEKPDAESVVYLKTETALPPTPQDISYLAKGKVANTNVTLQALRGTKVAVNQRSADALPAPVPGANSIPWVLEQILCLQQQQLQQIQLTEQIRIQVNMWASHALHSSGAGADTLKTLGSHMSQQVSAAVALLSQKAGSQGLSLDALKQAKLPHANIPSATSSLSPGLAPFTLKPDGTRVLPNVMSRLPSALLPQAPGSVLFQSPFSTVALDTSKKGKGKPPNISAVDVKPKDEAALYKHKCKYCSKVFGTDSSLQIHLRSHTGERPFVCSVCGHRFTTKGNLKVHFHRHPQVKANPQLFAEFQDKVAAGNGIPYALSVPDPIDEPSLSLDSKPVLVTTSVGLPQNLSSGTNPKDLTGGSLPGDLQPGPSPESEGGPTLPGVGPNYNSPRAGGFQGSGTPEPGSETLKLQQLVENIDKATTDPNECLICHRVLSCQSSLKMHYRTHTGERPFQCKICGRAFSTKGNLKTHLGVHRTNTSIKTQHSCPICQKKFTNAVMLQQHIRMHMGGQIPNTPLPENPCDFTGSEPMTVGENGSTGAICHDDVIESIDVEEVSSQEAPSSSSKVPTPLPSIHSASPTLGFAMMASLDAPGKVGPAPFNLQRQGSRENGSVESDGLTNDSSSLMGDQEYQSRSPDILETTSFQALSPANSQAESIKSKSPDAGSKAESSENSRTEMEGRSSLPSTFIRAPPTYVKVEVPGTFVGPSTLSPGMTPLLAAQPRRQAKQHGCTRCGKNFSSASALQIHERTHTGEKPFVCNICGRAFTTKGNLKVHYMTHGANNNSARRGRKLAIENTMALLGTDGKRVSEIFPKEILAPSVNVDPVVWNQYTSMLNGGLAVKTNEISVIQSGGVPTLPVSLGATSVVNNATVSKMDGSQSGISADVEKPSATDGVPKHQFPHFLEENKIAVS
Notes: 8-mer, flanks averaged, mean of replicates
Strand	E-score
CGAGTGGC	-0.214
GACAAGCC	-0.0682
CCACGCAC	-0.119
CCAGCAAG	-0.0686
AGCCGTAT	-0.0109
GCCAGAAA	-0.11
GATCTATA	0.289
ACAGGACT	-0.136

Study 3 — target: CCND1, cyclin fold, Cln2 fusion (human); method: yeast growth competition, sequencing; sample: yeast; notes: weak parent motif; baseline: not given; direction: higher = stronger binding
Starting sequence: SLBP docking peptide (human); ARYKRKLLINDFG; partner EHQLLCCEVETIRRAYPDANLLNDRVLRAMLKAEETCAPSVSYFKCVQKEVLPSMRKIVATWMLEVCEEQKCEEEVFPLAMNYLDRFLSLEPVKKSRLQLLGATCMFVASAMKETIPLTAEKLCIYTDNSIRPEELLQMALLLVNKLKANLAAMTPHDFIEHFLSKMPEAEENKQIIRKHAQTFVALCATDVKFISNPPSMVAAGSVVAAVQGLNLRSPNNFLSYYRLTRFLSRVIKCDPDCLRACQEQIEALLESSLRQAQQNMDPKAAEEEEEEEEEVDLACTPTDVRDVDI
Substitution	normalised enrichment score
A1I	-0.224
R5I	0.375
D11P	0.966
L8Y	-0.216
R2P	0.189
F12C	-0.2
K4I	0.105
N10M	0.124

Other studies, line by line
SMILES	target	assay	setting	scale	measurement	value
COc1cc2ncnc(Nc3cccc(Cl)c3)c2cc1OC	Mitogen-activated protein kinase kinase kinase kinase 2 (MAP4K2, Homo sapiens, UniProt Q12851)	enzyme activity, inhibitor	0.5 µM	baseline: control	remaining activity	98.1%

A few entries again (study 1):
Strand	log2 enrichment
UAACUUUAGAGGAGGAUCUGAUGGAUAUGGCAGAGGACGUGGAUUUGGGGAUGGCUAUAAUGGGUAUGGAGGAGGACCUGGAGGUGGCAA	-0.521
UAACUUUAGAGGAGGAUCUGAUGGAUAUGGCAGUGGGCGUGGAUUUGGGGAUGGCUAUAAUGGGUAUGGAGGAGGACCUGGAGGUGGCAA	-0.575
